Experimental data pooled from the literature.
Parts stem from different laboratories: compare values within a part only.
UniProt P07332, sequence (whole entry, looked up): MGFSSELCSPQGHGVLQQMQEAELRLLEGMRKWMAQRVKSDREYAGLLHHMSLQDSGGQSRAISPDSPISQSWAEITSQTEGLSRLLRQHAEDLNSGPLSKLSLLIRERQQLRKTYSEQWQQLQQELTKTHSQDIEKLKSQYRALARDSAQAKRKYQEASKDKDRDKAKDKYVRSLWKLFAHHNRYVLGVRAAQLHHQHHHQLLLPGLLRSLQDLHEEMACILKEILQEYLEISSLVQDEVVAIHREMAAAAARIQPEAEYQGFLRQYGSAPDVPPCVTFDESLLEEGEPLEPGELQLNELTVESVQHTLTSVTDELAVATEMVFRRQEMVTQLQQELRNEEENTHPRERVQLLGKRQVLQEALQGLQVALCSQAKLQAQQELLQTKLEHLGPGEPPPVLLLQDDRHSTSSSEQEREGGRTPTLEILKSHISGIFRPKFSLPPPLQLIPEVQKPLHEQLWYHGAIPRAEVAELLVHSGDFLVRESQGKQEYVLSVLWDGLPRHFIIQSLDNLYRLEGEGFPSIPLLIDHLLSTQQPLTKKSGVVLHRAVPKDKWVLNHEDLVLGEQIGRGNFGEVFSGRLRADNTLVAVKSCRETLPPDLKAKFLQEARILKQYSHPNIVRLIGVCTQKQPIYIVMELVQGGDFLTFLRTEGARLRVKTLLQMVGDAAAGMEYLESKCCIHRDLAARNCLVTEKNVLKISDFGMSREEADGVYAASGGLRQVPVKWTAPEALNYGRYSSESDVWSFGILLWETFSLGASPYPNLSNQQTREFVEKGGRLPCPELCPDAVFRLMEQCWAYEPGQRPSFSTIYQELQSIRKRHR
UniProt Q9H4B4, sequence (whole entry, looked up): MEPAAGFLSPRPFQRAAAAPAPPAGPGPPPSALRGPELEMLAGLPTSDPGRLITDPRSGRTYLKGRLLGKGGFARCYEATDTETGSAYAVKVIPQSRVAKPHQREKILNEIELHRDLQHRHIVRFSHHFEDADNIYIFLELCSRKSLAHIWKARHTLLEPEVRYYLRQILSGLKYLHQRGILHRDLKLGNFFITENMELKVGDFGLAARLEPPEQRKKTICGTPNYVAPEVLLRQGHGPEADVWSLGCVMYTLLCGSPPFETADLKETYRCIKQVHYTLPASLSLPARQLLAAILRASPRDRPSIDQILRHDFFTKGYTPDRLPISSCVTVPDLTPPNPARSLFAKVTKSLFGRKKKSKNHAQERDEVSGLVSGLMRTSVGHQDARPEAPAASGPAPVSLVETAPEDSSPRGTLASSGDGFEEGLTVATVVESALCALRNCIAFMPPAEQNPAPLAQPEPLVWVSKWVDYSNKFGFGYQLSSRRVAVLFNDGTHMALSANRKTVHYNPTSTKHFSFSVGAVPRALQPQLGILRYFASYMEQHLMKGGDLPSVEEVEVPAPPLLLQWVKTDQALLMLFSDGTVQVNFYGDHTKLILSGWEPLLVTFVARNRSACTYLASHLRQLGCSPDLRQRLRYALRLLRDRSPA
UniProt O15197, sequence (whole entry, looked up): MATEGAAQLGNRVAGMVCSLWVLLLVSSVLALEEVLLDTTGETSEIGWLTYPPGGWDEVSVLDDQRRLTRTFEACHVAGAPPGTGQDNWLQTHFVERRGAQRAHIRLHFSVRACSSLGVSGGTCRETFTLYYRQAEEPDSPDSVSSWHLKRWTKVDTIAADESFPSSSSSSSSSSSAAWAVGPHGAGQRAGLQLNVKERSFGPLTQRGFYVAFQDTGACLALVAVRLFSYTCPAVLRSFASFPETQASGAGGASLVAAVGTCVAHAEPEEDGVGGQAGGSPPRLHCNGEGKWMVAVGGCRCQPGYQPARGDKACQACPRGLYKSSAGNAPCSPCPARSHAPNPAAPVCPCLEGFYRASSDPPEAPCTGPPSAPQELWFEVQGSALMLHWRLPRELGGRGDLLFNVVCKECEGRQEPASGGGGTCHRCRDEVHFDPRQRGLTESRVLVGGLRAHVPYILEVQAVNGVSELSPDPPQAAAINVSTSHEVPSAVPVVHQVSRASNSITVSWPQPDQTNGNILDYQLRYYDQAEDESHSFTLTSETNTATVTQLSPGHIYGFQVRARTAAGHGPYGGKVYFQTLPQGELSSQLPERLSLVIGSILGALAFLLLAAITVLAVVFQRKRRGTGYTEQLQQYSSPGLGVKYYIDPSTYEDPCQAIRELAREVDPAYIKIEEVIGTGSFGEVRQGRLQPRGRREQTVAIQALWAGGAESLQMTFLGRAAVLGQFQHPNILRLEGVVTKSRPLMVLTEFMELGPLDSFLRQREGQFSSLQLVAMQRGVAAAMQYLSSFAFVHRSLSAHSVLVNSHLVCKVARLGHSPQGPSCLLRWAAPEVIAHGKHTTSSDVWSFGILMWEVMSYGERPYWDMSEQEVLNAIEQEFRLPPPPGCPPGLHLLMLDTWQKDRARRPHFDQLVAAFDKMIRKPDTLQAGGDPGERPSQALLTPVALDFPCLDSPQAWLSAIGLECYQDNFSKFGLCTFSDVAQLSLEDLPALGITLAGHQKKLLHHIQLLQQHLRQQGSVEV
UniProt Q8IVH8, sequence (whole entry, looked up): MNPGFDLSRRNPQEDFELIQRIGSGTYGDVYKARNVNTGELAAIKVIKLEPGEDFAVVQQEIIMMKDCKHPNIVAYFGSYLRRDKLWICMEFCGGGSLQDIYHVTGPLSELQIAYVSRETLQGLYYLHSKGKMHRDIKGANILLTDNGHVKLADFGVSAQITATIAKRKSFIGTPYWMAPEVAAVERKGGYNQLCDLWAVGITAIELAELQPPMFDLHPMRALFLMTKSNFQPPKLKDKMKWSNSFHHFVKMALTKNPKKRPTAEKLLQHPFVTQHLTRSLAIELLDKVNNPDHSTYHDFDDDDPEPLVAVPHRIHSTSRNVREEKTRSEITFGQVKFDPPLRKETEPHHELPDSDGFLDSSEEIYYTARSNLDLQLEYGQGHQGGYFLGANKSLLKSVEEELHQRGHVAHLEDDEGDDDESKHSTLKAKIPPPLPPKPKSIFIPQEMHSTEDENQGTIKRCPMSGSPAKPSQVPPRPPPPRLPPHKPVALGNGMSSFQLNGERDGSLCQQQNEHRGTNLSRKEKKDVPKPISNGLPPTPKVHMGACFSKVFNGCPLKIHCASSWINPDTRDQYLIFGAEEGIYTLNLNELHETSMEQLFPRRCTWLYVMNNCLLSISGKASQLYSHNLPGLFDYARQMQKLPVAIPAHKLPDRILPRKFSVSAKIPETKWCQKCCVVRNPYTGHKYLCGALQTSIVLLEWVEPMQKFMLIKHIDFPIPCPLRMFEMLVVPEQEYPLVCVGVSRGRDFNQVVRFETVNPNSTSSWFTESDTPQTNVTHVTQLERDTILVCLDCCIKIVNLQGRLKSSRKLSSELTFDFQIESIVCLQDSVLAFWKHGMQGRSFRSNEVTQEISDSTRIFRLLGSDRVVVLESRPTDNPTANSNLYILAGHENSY

Block 1 — technique: RNA Bind-n-Seq; molecule type: RNA; medium: in vitro; tested at: 90 pmol; setting: 4-mer, random 30-nt RNA, single round; reference: input library; reading: higher = stronger binding
Target: Eukaryotic initiation factor 4A-I (EIF4A1, Homo sapiens, UniProt P60842, residues 1-406, full length assumed)
UniProt P60842, sequence (whole entry, looked up): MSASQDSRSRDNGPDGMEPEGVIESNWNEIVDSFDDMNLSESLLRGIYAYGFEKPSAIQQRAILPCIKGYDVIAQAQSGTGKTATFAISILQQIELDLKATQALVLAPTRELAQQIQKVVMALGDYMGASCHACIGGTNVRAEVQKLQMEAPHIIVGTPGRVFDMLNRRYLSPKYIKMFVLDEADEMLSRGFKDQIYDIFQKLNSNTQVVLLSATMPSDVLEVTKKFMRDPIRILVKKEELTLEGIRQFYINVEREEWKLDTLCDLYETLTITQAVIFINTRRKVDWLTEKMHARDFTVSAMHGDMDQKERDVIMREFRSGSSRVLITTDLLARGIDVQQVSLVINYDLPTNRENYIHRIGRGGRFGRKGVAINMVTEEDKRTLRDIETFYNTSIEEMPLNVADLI
With: 3 µM iPr-DMDA-PatA, 2 mM ADP, 2 mM phosphate
Sequence	4-mer enrichment [fold]
UCGU	0.929
CACU	0.984
CCUC	0.898
UCUA	1.14
UGCU	0.825
CGAG	1.02
UGCC	0.768
CUCU	0.919

Block 2 — effect on: enzyme activity; mode: inhibitor; tested at: 0.5 µM; reference: control
Target: Protein-tyrosine kinase 6 (PTK6, Homo sapiens, UniProt Q13882)
UniProt Q13882, sequence (whole entry, looked up): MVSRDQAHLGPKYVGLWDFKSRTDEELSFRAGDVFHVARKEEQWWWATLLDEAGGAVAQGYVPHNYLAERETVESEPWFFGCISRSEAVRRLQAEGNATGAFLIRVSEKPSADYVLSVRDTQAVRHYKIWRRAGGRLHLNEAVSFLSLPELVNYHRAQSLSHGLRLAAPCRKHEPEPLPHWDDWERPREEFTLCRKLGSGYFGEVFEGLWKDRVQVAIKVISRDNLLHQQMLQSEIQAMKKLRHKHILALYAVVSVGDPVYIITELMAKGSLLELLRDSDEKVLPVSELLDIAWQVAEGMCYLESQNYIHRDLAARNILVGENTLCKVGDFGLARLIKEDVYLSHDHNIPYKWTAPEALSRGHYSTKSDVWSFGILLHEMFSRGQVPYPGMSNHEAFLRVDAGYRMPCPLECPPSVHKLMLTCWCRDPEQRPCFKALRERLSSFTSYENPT
Compound	remaining activity [%]
Cc1nc(-c2ccccc2)c(-c2ccncc2)o1	86
Nc1[nH]nc2nc3ccccc3nc12	84.1
O=C(CCCc1ccc(-c2ccccc2F)cc1)Nc1ccc(O)cc1	102
COc1ccc(C(=O)Nc2sc3c(c2C(N)=O)CCCC3)cc1OC	97.8
Nc1ccc2ncnc(NCCc3ccc(Oc4ccccc4)cc3)c2c1	93.3
NCCNc1ncc(C(N)=O)c(Nc2cccc(C(F)(F)F)c2)n1	69
CCOC(=O)c1c(C)[nH]c(/C=C2\C(=O)Nc3ccccc32)c1C	82.8
COc1ccc(OC)c2c(=S)c3ccccc3[nH]c12	84
COc1cc2ncnc(Nc3ccc(F)c(Cl)c3)c2cc1OCCCN1CCOCC1	77.2
CNC(=O)c1cc(Oc2ccc(NC(=O)Nc3ccc(Cl)c(C(F)(F)F)c3)cc2)ccn1	96.9
Cc1ccc(NC(=O)c2ccc(CN3CCN(C)CC3)cc2)cc1Nc1nc(-c2cccnc2)cs1	79.2
Cc1cccc(-c2[nH]c(C(C)(C)C)nc2-c2ccc3c(c2)OCO3)n1	87.7
COc1cc2ncnc(Nc3ccc(Oc4ccccc4)cc3)c2cc1OC	-0.0383
Cn1sc(=O)n(Cc2ccccc2)c1=O	96.7

Block 3 — technique: RNA Bind-n-Seq; molecule type: RNA; medium: in vitro; tested at: 365 nM; reference: no-protein control; reading: higher = stronger binding
Target: RNA binding protein fox-1 homolog 2, RRM domain, GST-SBP tag (RBFOX2, Homo sapiens, UniProt O43251-10, residues 100-194)
Setting: natural RNA segment, single round, ends assumed
Target sequence (chain): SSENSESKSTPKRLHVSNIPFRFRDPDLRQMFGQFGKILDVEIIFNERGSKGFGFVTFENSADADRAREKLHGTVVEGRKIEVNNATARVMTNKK
Sequence	RBNS enrichment (R)
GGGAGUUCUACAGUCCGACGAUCAGACUCUAGAAAAAAGGGCUGAGGGGAAGCAAGACGUAAAGAGUUUUCAUCCUGUAUCACAGUGUUUUUAUUGCUCGCCCAGACACCAUGUGCAAUAAGACUGGUGUUCGUGGAAUUCUCGGGUGCCAA	0.339
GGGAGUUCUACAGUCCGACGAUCGUUUCAUAAAUUUUAAAAUAAUUAUUUUUGACUAUGAACAUUAGUCCAAAUUUAAUAUUUGACACAGUUCAUACCAGCUUGCUACAAUAAUGAUAAUUUAUUAGUCUUUCUGGAAUUCUCGGGUGCCAA	4.07
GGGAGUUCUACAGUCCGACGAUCGCAUAUAAAAUUAAAAUAAAGAUUUUGGAAACAACAUAUUGCCAAAAUGAGAAUUACUUGGUAUUAUUUUGGUCUGUGGCUUCUAAGAUUUUUUAAAAUACAUGAAAAAUUGGAAUUCUCGGGUGCCAA	1.13
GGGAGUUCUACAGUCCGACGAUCCAGCUCGGAUUAAGAAUAUGUUUCCUUGUUUAUCAGAUACAUCACUGCUUGAUGAAGCAAGGAAGAUAUACAUGAAAAUUUUAAAAAUACAUAUCGCUGACUUCAUGGAAUGGAAUUCUCGGGUGCCAA	0.53
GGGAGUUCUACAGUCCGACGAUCCCAUCUCUAAUGCCUUUAAAAGGCUAAAGGGGGCUGAAAGGUCCCUGUAUCAGGUGGUUAACCAAGGAAUCCACAUCAACAGGUGGGGCCAUCUUUAAUGUGGGCACCAGUGGAAUUCUCGGGUGCCAA	0.198
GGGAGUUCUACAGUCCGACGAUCUCUCAGGCUGGGGUGGACUCAGAUGCCAGGAAAGGGACAGCCUCCCAUUGUCAGGCAGAAGCUGCCCAAAGCCUGGAGAAGGACUUGUUUGCCCUCUUUCCCCCAGGAGGUGGAAUUCUCGGGUGCCAA	0.248
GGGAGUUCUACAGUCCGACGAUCUCUGUUACAGGUCCAUGGCAAUUACUGUUUAUUUUUUCCUGGAAAAAUAUUUUUUUAUAAAAGGCUUUUUUUUUUUUUUAAAUACAUGAGAGGCAUUGGGCUAAGAAAGAUGGAAUUCUCGGGUGCCAA	0.965
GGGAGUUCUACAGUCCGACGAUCCUGUCUGUAGUGAAUUCAAGUGGGAAAUUUUCAAAAGUUUCUCCUGCUGGAAAUAAGGUAUAAUUUGUAUUUUGCAGACAAUUCAGUAAAGUUACUGGCUUUCUUAGUGAUGGAAUUCUCGGGUGCCAA	0.507

Block 4 — effect on: cell-free assay; technique: competition with immobilised ligand; tested at: 1 µM
Structure (SMILES): COc1cccc(CNC(=O)c2nc3scc(COCc4ccc(C(=O)O)cc4)c3c(=O)[nH]2)c1
target	remaining binding [%]
FES (Homo sapiens, UniProt P07332)	94.5
MAP4K3 (Homo sapiens, UniProt Q8IVH8)	99.8
PLK3 (Homo sapiens, UniProt Q9H4B4)	65.3
PTK6 (Homo sapiens, UniProt Q13882)	82.5
EPHB6 (Homo sapiens, UniProt O15197)	100
Tyrosine-protein kinase ABL1, non-phosphorylated (ABL1, Homo sapiens, UniProt P00519, T315I)	92

Excerpt of the above (block 2):
Compound	remaining activity [%]
CCOC(=O)c1c(C)[nH]c(/C=C2\C(=O)Nc3ccccc32)c1C	82.8
COc1ccc(OC)c2c(=S)c3ccccc3[nH]c12	84
